Results collected from several papers.
Every numbered part comes from another study and shows a few of its results, in no order.

Series 1
Target: Centromere-binding protein 1, full length, N-terminal tag (CBF1, Saccharomyces cerevisiae, UniProt P17106, residues 1-351)
Sequence of UniProt P17106 (whole entry, looked up): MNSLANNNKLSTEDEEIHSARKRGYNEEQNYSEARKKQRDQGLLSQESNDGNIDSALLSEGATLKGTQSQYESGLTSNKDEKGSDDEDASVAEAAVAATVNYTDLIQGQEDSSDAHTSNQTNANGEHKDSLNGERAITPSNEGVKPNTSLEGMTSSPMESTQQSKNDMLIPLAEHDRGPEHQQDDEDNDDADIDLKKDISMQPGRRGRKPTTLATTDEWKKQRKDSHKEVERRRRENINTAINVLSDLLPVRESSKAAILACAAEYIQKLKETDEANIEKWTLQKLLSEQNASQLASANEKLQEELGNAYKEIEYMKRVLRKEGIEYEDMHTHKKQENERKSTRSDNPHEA
Technique: protein-binding microarray
Form: double-stranded DNA, one strand shown
Matrix: in vitro
Concentration: 0.8 µM
Setting: whole 60-bp probe, no competitor
Direction: higher = stronger binding
Quantity: fluorescence intensity
Shared flanks, not repeated: … GTCTTGATTCGCTTGACGCTGCTG
Sequence = GAAGCCAAGCGCCGTCACCCTTTCATATTAAAATAG; value = 491 a.u.
Sequence = CTATTGAGAAAACAACACGTTTACTTGTAGAGTTTC; value = 576 a.u.
Sequence = CTAATATATGGTAACCACCAGAGAACTTGTTATTTC; value = 507 a.u.
Sequence = GAATGTTAAGATTACATCAGCACTAACAAACAATAG; value = 565 a.u.
Sequence = GAAACCTCAATTGATCACATCGTCTCGCCGTACTAG; value = 527 a.u.
Sequence = CTAATTTTTGTTTCCTTCGTGACTTCTTTTGCATTC; value = 645 a.u.

Series 2
Target: RNA binding protein fox-1 homolog 2, RRM domain, GST-SBP tag (RBFOX2, Homo sapiens, UniProt O43251-10, residues 100-194)
Technique: RNA Bind-n-Seq
Form: RNA
Matrix: in vitro
Concentration: 365 nM
Setting: natural RNA segment, single round, ends assumed
Relative to: no-protein control
Direction: higher = stronger binding
Quantity: RBNS enrichment (R)
Target sequence (chain): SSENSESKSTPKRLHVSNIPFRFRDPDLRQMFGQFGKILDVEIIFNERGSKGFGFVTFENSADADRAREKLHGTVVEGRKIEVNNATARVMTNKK
Sequence = GGGAGUUCUACAGUCCGACGAUCAGGUUGCGUUUUGGGGUUUGCCUUUUUUUGUUGUCGCUUAAAUGCAAUUUGGUUGUAAAGAUUUGAUUCCUUUGUGUUCAUCUGUUCCGCUUCUCAGCGGUCCAUCUCAGUGGAAUUCUCGGGUGCCAA; value = 0.325
Sequence = GGGAGUUCUACAGUCCGACGAUCGUGUGGAAUAAAAAAGGGAAACUGUUUUCACAAGCUGUUCUUUGUUUCAUAAUUGGAUUCAUCAAUCCCGUAGCUACCCAUAUUGCACUGAGCUUGCCAGUGGUGACUGCUGGAAUUCUCGGGUGCCAA; value = 0.488
Sequence = GGGAGUUCUACAGUCCGACGAUCAGAAGGUUUCUCUGAGUCACUCACCAGGCCCUACAAGUCCGCUUUCUUGCAGGCUGCCUCUUUUAUAUUGGGUCUCUUGGCCCAACUGCUUCCUUCUUGUUAAUAAGGAGUGGAAUUCUCGGGUGCCAA; value = 0.258
Sequence = GGGAGUUCUACAGUCCGACGAUCAUGUGGAUGACUUACAAGAAACACAAAAGAAAGGUACUUAUAGAGUCUGGUUCUAAUAAUUGGUACCCUCUUUCUCGGUUCCAUAUUUUUAACAACCCUUUAACAAACUAUGGAAUUCUCGGGUGCCAA; value = 0.465

Series 3
Target: Sal-like protein 4, full length isoform A (SALL4, Homo sapiens, UniProt Q9UJQ4, residues 1-1053)
Sequence of UniProt Q9UJQ4 (whole entry, looked up): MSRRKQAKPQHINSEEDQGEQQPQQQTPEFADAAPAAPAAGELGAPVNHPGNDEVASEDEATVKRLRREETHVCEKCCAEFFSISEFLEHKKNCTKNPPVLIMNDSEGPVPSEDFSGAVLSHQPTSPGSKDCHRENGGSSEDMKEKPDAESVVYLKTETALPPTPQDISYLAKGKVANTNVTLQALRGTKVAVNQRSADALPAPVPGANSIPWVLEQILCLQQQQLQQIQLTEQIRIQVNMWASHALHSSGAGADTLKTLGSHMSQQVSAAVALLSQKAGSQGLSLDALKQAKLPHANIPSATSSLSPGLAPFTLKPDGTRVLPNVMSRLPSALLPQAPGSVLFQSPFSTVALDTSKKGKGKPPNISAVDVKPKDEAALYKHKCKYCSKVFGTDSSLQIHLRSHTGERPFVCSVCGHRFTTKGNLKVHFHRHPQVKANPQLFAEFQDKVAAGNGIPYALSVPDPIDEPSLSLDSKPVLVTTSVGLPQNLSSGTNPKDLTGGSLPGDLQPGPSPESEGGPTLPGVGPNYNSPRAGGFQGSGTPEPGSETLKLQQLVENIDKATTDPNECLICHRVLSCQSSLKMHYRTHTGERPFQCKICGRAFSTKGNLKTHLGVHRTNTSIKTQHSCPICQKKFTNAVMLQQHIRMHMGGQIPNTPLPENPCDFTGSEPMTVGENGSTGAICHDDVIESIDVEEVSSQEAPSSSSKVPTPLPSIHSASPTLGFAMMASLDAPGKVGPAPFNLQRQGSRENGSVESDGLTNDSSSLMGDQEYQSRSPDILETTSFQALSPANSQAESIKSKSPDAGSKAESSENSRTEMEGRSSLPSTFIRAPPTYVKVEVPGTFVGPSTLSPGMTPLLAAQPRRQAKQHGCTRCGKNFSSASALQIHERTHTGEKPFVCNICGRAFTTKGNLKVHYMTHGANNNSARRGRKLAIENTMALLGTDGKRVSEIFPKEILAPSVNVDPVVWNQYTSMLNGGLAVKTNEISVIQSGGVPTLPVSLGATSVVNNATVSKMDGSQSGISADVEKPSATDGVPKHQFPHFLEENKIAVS
Technique: universal PBM
Form: double-stranded DNA, one strand shown
Matrix: in vitro
Concentration: 600 nM
Setting: 8-mer, flanks averaged, mean of replicates
Direction: higher = stronger binding
Quantity: E-score
Sequence = GGTCGATA; value = -0.011
Sequence = AGTGACGG; value = -0.164
Sequence = ACGGCAAT; value = 0.143
Sequence = AGTGCGGG; value = -0.206
Sequence = ATGCGAGA; value = 0.0702
Sequence = GAGAGGGC; value = -0.361

Single results of other studies
Molecule = PhoQ, residues 284 288 289 292 302 303 SIHLQL; target = PhoP, residues 12 14 15 18 19 LHTVM (Escherichia coli, UniProt P23836); assay = Sort-seq, item: YFP reporter; system = E. coli; setting = PhoQ-PhoP variant library, with: 10 µM Mg2+; scale = relative to: high Mg2+ state, higher = stronger signaling; quantity = fold induction; value = 13.8
